Experimental data gathered from unrelated publications.
Every numbered part comes from another study and shows a few of its results, in no order. Substitutions count along the parent as printed.

Study 1
Target: Sal-like protein 4, full length isoform A (SALL4, Homo sapiens, UniProt Q9UJQ4, residues 1-1053)
UniProt Q9UJQ4, sequence (whole entry, looked up): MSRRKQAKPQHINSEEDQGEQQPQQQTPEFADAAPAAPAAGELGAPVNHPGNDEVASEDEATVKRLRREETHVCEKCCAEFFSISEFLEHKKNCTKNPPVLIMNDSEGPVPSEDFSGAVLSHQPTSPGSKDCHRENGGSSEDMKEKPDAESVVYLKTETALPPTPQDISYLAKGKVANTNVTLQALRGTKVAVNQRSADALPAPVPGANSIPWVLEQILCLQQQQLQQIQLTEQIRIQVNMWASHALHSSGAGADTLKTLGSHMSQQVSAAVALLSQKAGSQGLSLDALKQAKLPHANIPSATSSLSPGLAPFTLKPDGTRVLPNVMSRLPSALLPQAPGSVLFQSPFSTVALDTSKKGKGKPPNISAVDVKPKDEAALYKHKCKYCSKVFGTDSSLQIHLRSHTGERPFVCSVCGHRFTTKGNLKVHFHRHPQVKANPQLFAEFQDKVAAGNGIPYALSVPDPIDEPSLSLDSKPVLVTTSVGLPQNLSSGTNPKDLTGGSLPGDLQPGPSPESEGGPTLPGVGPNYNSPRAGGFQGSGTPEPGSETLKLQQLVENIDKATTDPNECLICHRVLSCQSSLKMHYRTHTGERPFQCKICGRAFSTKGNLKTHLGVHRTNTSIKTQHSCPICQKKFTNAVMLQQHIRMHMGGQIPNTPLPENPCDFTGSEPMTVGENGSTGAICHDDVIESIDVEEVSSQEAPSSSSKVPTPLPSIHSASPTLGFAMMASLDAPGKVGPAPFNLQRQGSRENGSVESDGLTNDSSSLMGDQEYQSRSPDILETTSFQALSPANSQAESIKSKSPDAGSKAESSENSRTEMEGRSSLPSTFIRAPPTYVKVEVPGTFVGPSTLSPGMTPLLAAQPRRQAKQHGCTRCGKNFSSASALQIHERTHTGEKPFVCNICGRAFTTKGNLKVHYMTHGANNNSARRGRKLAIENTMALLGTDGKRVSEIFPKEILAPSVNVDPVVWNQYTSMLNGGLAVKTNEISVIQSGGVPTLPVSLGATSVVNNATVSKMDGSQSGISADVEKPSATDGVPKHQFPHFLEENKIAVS
Method: universal PBM
Molecule type: double-stranded DNA, one strand shown
Matrix: in vitro
Tested at: 600 nM
Setting: 8-mer, flanks averaged, mean of replicates
Direction: higher = stronger binding
Oligonucleotide	E-score
GACCAACC	-0.266
TAATGGGA	0.0643
CAGTTGAG	-0.208
GAGCGCCA	-0.288
ACTGAGGC	-0.0689
ACGCGAGG	-0.203
AGGGGTCG	-0.271
CACCCCTG	-0.256
ATATTCAA	0.376
AGGTCCGG	-0.374
CCAAGTTA	0.195
GAATGCCA	-0.0289
ATGCTGGA	-0.106
ATGTCTGG	0.0582
CCACTCAG	-0.127
CGATATCA	0.187
GATAAAAA	0.307
CGCATCAG	-0.063
CTATCCCC	-0.233
ATTAAGTC	0.299
GATTTACC	0.098
GCACTTAA	0.132
CGAACCTA	-0.131
ATCAAAAT	0.225

Study 2
Target: Histone acetyltransferase KAT6A, winged helix 2, GST fusion (KAT6A, Homo sapiens, UniProt Q92794, residues 85-181)
Method: protein binding microarray
Molecule type: double-stranded DNA, one strand shown
Matrix: in vitro
Tested at: not given
Setting: 8-mer, flanks averaged, mean of 2 arrays, mostly near background
Relative to: not given
Direction: higher = stronger binding
Construct (chain): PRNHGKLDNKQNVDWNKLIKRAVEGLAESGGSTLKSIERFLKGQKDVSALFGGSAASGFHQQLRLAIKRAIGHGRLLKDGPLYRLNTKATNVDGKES
Oligonucleotide	E-score
ACCGACCT	0.00321
CCCATAAA	0.0827
ATAATGGC	0.0524
GTACCGAA	-0.0749
CGTTGTAC	-0.143
ACTTGCGG	-0.051
ACGCAGAT	0.0297
GCATACGA	0.0265
ATCACTGG	-0.0223
CCTCCGAA	-0.0185
GCATTTAC	-0.0434
GTTAGCCA	-0.0697
CCTAGCTA	-0.125
GCCCTGCA	0.0655
CCGTCAGA	-0.193
CTAAATAC	-0.0898
TGGACAAA	0.0194
CCATATGG	-0.113
ATCTTAAC	0.0156
GGGAGCCC	-0.0782
GCGCGTTA	0.151

Study 3
Target: ABI1, truncated, D143A, DHFR fusion (Arabidopsis thaliana)
Method: DHFR PCA, deep sequencing
Matrix: yeast
Setting: methotrexate growth selection, single substitutions
With: (+)-ABA 4.8 µM
Relative to: wild-type fitted maximum
Direction: higher = stronger binding
Starting sequence: PYL1, truncated, DHFR fusion (Arabidopsis thaliana); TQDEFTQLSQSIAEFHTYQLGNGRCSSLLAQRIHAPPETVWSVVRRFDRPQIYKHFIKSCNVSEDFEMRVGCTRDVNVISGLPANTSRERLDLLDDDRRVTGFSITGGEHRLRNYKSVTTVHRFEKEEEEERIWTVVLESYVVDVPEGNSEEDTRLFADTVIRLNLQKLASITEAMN; partner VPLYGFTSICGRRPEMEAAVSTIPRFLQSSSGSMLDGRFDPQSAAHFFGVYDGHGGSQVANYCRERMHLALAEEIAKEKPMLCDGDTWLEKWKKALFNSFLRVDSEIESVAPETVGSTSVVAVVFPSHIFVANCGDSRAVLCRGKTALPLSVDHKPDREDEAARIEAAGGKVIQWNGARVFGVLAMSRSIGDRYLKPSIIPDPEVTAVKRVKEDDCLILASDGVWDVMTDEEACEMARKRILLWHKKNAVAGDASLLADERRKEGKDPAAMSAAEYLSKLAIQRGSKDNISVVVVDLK
Variant	relative binding score [%]
K168P	2
Y18Q	32.1
E64N	71.3
E151I	74
S104I	9.81
I52C	57.9
Q51V	0.413
E64K	79.1
R111K	36
I12H	-6.95
R45L	0.0211
G107S	37.5
D159K	11.3

Study 4
Target: RNA binding protein fox-1 homolog 2, RRM domain, GST-SBP tag (RBFOX2, Homo sapiens, UniProt O43251-10, residues 100-194)
Method: RNA Bind-n-Seq
Molecule type: RNA
Matrix: in vitro
Tested at: 365 nM
Setting: natural RNA segment, single round, ends assumed
Relative to: no-protein control
Direction: higher = stronger binding
Constant ends, left off below: GGGAGUUCUACAGUCCGACGAUC … UGGAAUUCUCGGGUGCCAA
Construct (chain): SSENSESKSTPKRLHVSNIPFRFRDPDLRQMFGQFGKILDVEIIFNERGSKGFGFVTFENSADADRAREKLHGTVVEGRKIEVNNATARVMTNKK
Oligonucleotide	RBNS enrichment (R)
GGAUUCCGUCUGCAGAGGAGGACGUAGGGGGCCGUCACACCCACCAGGCCUCCCUGCUGUGCUUUAACACAGGCAGAAGAGGUUCAUGGCAAUAUAAUAGUCAAUGAACU	0.221
UAUUUAAAAUGAAAUUUAAUGAGCACUUAGUGACUUCAUUUGUUCAAGAAUAUUUGAUUUCCUAUUGUGUGCAUGGGAGGUUUACAAAAGACAGACUGUCCCUAUGCUUG	0.669
GGUGAAUCAGUACACUGUGACCAAGGUCCUCAAAUUGGAAUUUGAACAACAAUGUAAAACCUGUUCUGUCACAAAUGUUCCUGAAAGCACCACAGCUACUCAAGAAGAUC	0.239
UCAGCACAAGCUAGGGGAGAUCCUACCAACACUGAUAGGUCAGUCAUUGAUGGCAAUUUGAAUGUGGGUAUUACUCUGUGAGCCACCCUGCUUCGCUUGUUUGUAAGGAG	1.16
UCAGUGCUUAUUUUUUAAACUGCAUUUUAAAAAUUGGAUAGUAUAAUAACAAUAAGGAGUAAGCCACCUUUUAUAGGCACCCUGUAGUUUUAUAGUUCUUAAUCUAAACA	0.433
CCUAGUUGUCCUGGUGCUAACACAGGAGCUACACCUUGAUCCUCUCCUGGCAUGAAAAUAAAACAAAGGUUUUCGUUGUUGUUGUUCCAUUGCCCAUUUCCCCCAUGUUG	0.521
UCUUUUUGGUCCAUUCAUUCACUGUUUAAAAGUUUAUGAUUCUUCCAAAAAUGAAUAUAGUUUCCUUUUUCAAAUCUGAAGGCAUGUGGGAAGCAGUGAGCAAAACCUGU	5.36
AGGGCAGGGCCUGGGGAGGGUGGCCUGUCCAGUCCUGCAGACAAGGGGAGGCCUGACAGAGCCCAAGAAUGAGGACACCCUCGGCACGGGAACCCAUUCACUUAGCGUUU	0.408
GAGGGGCCUUCUCAGUGCAGUGUCCAUGUGCCUCUAGCUCCCGUUGGUGUGGAGGGUACUGCCUUGGCCUGUGGCGUUUGUCCUGUCUCAUCUCUCCCAGCAUCCAUAGG	1.1
CGUGGCAACAUAUCUCUGUAAAAACAAACACUGUAACUUCUAAAUAAAUGUUUAGUCUUCCCUGUAACCUUCAAACUGAGUCAUGUGUGAGUCAGCAUUUUCUUUACAUG	0.323
UGGAGGUGUGCUUUCUCACAACGGGGUGUGUUUUCCCAUGUGCAGGGUGAGGUUUUUUUUUGCCACCCUGGACACAUGUUGGCCCCCUCAAAGAAUUUCUGUGGGGAUUU	0.885
ACCCAGCCUGGGACUUCCCUGGAACUGAGGGAUGCAUAGCUGUCUGGGGAAGCACUGACGGCCACUCACUCACCCUGUGCUGCUGCAAGUUUGACAGAACCACAUCACAU	0.938

Study 5
Target: RING finger protein unkempt homolog, zinc fingers 1-6, SBP tag (UNK, Homo sapiens, UniProt Q9C0B0, residues 30-357)
UniProt Q9C0B0, sequence (30-357, looked up): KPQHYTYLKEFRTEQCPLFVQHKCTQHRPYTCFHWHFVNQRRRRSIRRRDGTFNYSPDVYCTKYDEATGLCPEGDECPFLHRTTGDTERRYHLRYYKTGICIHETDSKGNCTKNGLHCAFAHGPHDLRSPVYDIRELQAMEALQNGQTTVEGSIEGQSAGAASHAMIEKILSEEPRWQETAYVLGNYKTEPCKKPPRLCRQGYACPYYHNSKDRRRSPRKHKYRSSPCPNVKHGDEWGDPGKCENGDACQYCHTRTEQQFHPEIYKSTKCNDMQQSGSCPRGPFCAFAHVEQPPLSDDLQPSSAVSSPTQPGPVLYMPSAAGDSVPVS
Method: RNA Bind-n-Seq
Molecule type: RNA
Matrix: in vitro
Tested at: 100 nM
Setting: RNA with constant flanks, ends assumed
Relative to: input RNA pool
Direction: higher = stronger binding
Oligonucleotide	bound/input enrichment [ratio]
GGGAGUUCUACAGUCCGACGAUCUCAUUGUACUGCAAAAAUCAUCCUCGUUUUAAAUCCGCCACAGUGAUAACCCGUCUGCACCCGCCGAAUCAUUUACCUUUUAAAUUAUCUGCUUUGUCUGAUACCUGAAACACAUCAAAACAACAGAGGAUUGAGCAUCA	0.68
GGGAGUUCUACAGUCCGACGAUCUCCAGUCUUACACUUAUGGUUGGCCUCAAAUCUAUUGCAUUUAUGAUAAUGUAUUAUAUCCCGUUGAGUUUAAUAUUUUUUUAUCCGCCUGUAAAUAAAGAUGGCAUCUUCUACAUUAAACAACAGAGGAUUGAGCAUCA	0.332
GGGAGUUCUACAGUCCGACGAUCGACCCCCACUCCCUGUGAGAGGGAAUGGGGGAAGCCUGAUGACCCUCAGCUGUUCCAAUCCCGUAUUUUUUUUCUUUUUUAAAAUUACUGUAUUUAUUAUGACGAUGGUGACUCCCCAGUCAACAGAGGAUUGAGCAUCA	0.955
GGGAGUUCUACAGUCCGACGAUCUAUUUUCUUAUUUCCGGUAUCAUUGCCCAGUGCCUAAGAUCUUUUAUGUUCAGCUCACUGCCGGAAAUAAUGAAUUUUUUGGGGAAGGAAAGACUCGACAAGCUGCCCGACACAAUGCUGCAACAGAGGAUUGAGCAUCA	0.425

Study 6
Target: Interferon regulatory factor 5, full length, phosphomimetic (IRF5, Homo sapiens, UniProt Q13568-2, residues 1-514, K96S/S451D/S453D/S456D/S462D)
Method: protein-binding microarray
Molecule type: double-stranded DNA, one strand shown
Matrix: in vitro
Tested at: 250 nM
Setting: 60-bp whole probe
With: salmon DNA 0.4 mg/ml
Relative to: random background probes
Direction: higher = stronger binding
Constant ends, left off below: GCCTAGCAC … GTCTTGATTCGCTTGACGCTGCTG
Oligonucleotide	log fluorescence [z-score]
TCAACTTGTCTTTTCACACTGTGCTAG	0.678
GACGGACTGGCCTTTCGGGACGTGCTA	0.617
AACGATATCGGGACTGGAGACGTGCTA	1.07
TTAAGACTGCTTATCCTTTAGTGCTAG	0.146
TCATCTAAAAAGTCTCTGACTGTGCTA	0.551
TTAGAACTGAGACGGGATTAGTGCTAG	-0.404
TTAGAACTGGGGTATCGTTTAGTGCTA	0.818
TACGGACTGGACACTGGGGACGTGCTA	-0.403
TTGGGTCTCGGTATCGGTTAGTGCTAG	5.29
TCATTTTCCATTTTGTGACTGTGCTAG	1.44
GACGATATCGGGTATCGAGATGTGCTA	2.69
TTAGGATTGGGTTTCGGTTAGTGCTAG	8.3
GACTGACTGCTTATCCTGACGTGCTAG	-0.0985
TTAGGACTGCTACCGCTTTAGTGCTAG	-0.448
AGGTTGATGGCTCTCTGGACGTGCTAG	-0.86
TCATCAATCATTTTAGTACTGTGCTAG	0.792
TTATGACTGCTTCTCCTTTAGTGCTAG	0.179
CATATATTCACTATAGTGTGGTGCTAG	0.626
TTAGGTATCCTTATTCTTTAGTGCTAG	0.38
GACGATCTCAGTTTCGAGATGTGCTAG	5.43

Repeated from above (study 1):
Oligonucleotide	E-score
TAATGGGA	0.0643
CAGTTGAG	-0.208
GAGCGCCA	-0.288
ACTGAGGC	-0.0689
ACGCGAGG	-0.203
AGGGGTCG	-0.271
CACCCCTG	-0.256
ATATTCAA	0.376
AGGTCCGG	-0.374
CCAAGTTA	0.195
GAATGCCA	-0.0289
ATGCTGGA	-0.106
ATGTCTGG	0.0582
